Experimental data gathered from unrelated publications.
Each line is one published result; not all experiments were run side by side. Numbers after ± are the reported error.
CNR2: Cannabinoid receptor 2 (CNR2, Homo sapiens, UniProt P34972)
UniProt P34972, sequence (whole entry, unmodified, looked up): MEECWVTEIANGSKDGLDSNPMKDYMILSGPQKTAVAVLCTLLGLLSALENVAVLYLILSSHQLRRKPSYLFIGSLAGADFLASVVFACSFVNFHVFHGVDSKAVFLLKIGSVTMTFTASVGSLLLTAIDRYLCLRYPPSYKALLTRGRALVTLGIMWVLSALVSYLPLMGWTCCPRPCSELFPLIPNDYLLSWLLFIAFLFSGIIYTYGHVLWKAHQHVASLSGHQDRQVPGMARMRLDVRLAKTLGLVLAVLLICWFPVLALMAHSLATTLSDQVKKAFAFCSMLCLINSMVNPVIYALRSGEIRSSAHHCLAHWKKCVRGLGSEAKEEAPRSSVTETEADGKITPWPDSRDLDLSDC

CCCCCCC[C@@H](C/C=C/CCC(=O)N(C)C/C(=C/Cl)C/C(=C\C(=O)N1CC(O)CC1=O)OC)OC (some centres unmarked) — EC50 (CNR2; cAMP, agonist): 8800 nM
CC(C)(CCCCCCN=C=S)c1cc(O)c2c(c1)OC(C)(C)C1CCC(CO)CC21 (single isomer, unassigned; (-)) — Ki (CNR2; binding, radioligand displacement; apparent Ki, added: [3H]-CP55940): 1.51 nM
CC(C)(CCCCCC#N)c1cc(O)c2c(c1)OC(C)(C)[C@@H]1CC[C@@H](CO)C[C@@H]21 — Ki (CNR2; binding): 0.37 nM
CC(C)[C@H](N=C(NS(=O)(=O)c1ccc(Cl)cc1)N1C[C@H](c2ccccc2)C(c2ccc(Cl)cc2)=N1)C(N)=O — IC50 (CNR2): 162 ± 17 nM
CC1(Cc2ccccc2)COc2ccc(C(=O)N3CCCCC3)cc21 (centres unmarked) — EC50 (CNR2; GTPγS binding, agonist; cell membranes): > 10000 nM
CCCCC/C=C\C/C=C\C/C=C\C/C=C\CCCC(=O)OC(CO)CO — EC50 (CNR2 (Homo sapiens, UniProt P34972, Q63R); β-arrestin 2 recruitment, agonist, BRET; HEK293 coexpressing GRK4): 2140 nM
CC1(C)Oc2cc([C@]34CC5CC(C[C@@](N=[N+]=[N-])(C5)C3)C4)cc(O)c2[C@@H]2C[C@H](O)CC[C@H]21 — EC50 (CNR2; cAMP inhibition, agonist; HEK293 expressing hCB2; added: forskolin): > 3000 nM
CCCCCn1cc(C(=O)C2C(C)(C)C2(C)C)c2ccccc21 — IC50 (CNR2): 83.6 ± 22 nM
CCC(=C(c1ccc(OCCN2CCCC2)cc1)c1ccc(OCCN2CCCC2)cc1)c1ccccc1 — Ki (CNR2; ligand displacement, radioligand; cell membranes): 43.7 nM
C[C@@]1(Cc2ccccc2)COc2cc(C(=O)N3CCCCC3)ccc21 — EC50 (CNR2; GTPγS binding, agonist; cell membranes): 108 nM
C[C@H](/C=C\C/C=C\C/C=C\CCCC(=O)N[C@H](C)CO)/C=C\CCCCCO — Ki (CNR2; ligand displacement, radioligand; cell membranes): 55.2 nM

Excerpt of the above:
CC(C)(CCCCCC#N)c1cc(O)c2c(c1)OC(C)(C)[C@@H]1CC[C@@H](CO)C[C@@H]21 — Ki (CNR2; binding): 0.37 nM
CC(C)[C@H](N=C(NS(=O)(=O)c1ccc(Cl)cc1)N1C[C@H](c2ccccc2)C(c2ccc(Cl)cc2)=N1)C(N)=O — IC50 (CNR2): 162 ± 17 nM
